Results of several laboratories.
A part holds a random share of what one study measured. Numbers after ± are the reported error. No end group written: not given here.
UniProt P08603, sequence (whole entry, unmodified, looked up): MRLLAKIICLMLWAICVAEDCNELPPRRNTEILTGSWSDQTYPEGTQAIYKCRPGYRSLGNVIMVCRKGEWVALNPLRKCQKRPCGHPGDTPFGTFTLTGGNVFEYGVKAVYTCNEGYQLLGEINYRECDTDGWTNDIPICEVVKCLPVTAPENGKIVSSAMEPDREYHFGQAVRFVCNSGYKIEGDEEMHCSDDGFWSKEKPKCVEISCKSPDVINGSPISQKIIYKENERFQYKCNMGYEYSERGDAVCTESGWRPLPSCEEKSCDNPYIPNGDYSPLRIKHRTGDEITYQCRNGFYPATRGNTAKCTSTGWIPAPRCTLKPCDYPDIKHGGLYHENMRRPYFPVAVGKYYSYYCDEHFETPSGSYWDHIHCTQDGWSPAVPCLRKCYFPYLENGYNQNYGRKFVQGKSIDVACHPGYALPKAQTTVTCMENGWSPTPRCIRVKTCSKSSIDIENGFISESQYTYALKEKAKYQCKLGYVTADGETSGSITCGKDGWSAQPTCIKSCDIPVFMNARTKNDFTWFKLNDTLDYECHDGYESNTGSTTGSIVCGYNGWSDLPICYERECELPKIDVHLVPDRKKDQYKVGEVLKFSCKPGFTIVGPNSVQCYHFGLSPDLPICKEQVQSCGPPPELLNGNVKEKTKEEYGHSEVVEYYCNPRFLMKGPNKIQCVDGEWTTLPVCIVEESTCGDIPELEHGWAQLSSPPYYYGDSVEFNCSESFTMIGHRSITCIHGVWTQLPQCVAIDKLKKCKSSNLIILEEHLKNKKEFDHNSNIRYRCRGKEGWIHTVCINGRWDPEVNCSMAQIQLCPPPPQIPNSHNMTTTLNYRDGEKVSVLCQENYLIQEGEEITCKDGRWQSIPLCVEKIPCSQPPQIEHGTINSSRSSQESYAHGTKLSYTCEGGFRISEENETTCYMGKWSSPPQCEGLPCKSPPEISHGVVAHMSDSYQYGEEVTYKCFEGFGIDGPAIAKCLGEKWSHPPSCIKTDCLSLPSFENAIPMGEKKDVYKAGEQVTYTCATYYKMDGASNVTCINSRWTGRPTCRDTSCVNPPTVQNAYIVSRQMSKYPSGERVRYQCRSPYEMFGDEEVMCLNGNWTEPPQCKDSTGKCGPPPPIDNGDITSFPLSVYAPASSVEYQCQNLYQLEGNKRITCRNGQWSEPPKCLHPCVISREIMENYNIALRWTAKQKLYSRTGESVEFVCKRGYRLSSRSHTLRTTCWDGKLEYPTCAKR

Block 1 — form: peptide; cells: tetramer-reactive CD8+ T cells; host: unexposed HLA-A*02:01 subjects
Sequence	number of clonotypes
EEFEPSTQYEY	1
KRVDWTIEY	0
APRITFGGP	0
FAVDAAKAY	1
ELPDEFVVVTV	6

Other studies, line by line
Substance	target or system	assay	system	conditions	quantity	value
ivermectin	human adenovirus C5 wild type	Western blot	A549	100 nM, 48 h post-infection	viral protein levels (E1A, DBP, pV, pVI)	decreased
GTCTTTAATAATTAAACTAGTGTCTTGACAGATGTAAACAACAGGTATAAAC (dsDNA)	niaR 1-174 Y108A (Streptococcus mutans, UniProt Q8DVX8)	EMSA	double-stranded DNA, one strand shown	–	binding	binds
ivermectin	Haemonchus contortus	larval migration	Weybridge susceptible L3	20 min	IC50	6.6 ± 0.2 nM
cbpA fragment (Streptococcus pneumoniae)	CFH 508-567 D542A (Homo sapiens, UniProt P08603)	ITC	–	–	Kd	1640 ± 40 nM
Cy5-CVWSLQNTLFM (Cy5-labelled; sequence looked up)	–	membrane binding, co-sedimentation	peptide, POPC cholesterol liposomes	40 µM, 10 min	liposome-bound peptide	58.4%

A few entries again (block 1):
Sequence	number of clonotypes
EEFEPSTQYEY	1
